# Earlier results as cited in several papers.
# Protocols differ between the studies behind these lines. Numbers after ± are the reported error.
# UniProt P63096, sequence (whole entry, looked up): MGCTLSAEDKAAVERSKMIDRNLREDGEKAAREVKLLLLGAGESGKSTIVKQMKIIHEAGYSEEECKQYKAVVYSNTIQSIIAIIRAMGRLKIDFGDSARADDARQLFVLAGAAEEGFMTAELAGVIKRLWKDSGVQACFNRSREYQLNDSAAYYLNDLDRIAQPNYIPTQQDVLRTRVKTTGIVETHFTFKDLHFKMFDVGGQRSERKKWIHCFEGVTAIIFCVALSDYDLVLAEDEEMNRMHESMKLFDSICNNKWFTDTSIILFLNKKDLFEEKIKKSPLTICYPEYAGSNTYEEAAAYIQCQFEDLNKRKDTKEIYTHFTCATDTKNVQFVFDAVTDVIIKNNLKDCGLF
# UniProt Q15717, sequence (whole entry, looked up): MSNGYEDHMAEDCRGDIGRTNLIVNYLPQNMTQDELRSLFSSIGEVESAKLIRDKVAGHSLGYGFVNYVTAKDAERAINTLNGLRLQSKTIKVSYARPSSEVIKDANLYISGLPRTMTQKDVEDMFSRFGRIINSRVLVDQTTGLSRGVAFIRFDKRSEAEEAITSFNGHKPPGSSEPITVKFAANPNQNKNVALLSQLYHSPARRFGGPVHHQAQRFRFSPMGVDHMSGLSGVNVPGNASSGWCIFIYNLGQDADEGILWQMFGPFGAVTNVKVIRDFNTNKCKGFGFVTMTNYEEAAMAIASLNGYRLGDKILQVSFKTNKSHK
Structure (SMILES),target or system,assay,system,conditions,quantity,result
COc1ccc(SC2=CC(=O)C(=O)c3c(-c4c(C)cccc4C)cn(S(=O)(=O)c4ccccc4)c32)cc1,"ELAV-like protein 1, RRM1-RRM2 domains (ELAVL1, Homo sapiens, UniProt Q15717)",,,,IC50,0.79 µM
CC1(C)S[C@@H]2CS[C@@H](CS)N2[C@H]1C(=O)O,"Metallo-beta-lactamase VIM-2 (VIM-2, Escherichia coli, UniProt Q5U7L7)",inhibitor,,,Ki,10 ± 2 µM
CC[C@H](C)[C@H](NC(=O)CNC(=O)[C@H](CC(=O)O)NC(=O)[C@H](CCCNC(=N)N)NC(=O)[C@@H](NC(=O)[C@H](CC(N)=O)NC(=O)[C@H](CCC(N)=O)NC(=O)CNC(=O)[C@@H](NC(=O)[C@H](CCCCN)NC(=O)[C@H](CCC(=O)O)NC(=O)[C@@H](NC(=O)[C@H](CCCCN)NC(=O)[C@H](CCCCN)NC(=O)[C@H](Cc1ccccc1)NC(=O)[C@H](CC(C)C)NC(=O)[C@H](CCCCN)NC(=O)[C@H](Cc1c[nH]c2ccccc12)NC(=O)[C@@H](N)CCCCN)[C@@H](C)CC)C(C)C)[C@@H](C)CC)C(=O)N[C@H](C(=O)N[C@@H](CCCCN)C(=O)N[C@@H](C)C(=O)NCC(=O)N1CCC[C@H]1C(=O)N[C@@H](C)C(=O)N[C@H](C(=O)N[C@@H](C)C(=O)N[C@H](C(=O)N[C@H](C(=O)NCC(=O)N[C@@H](CCC(N)=O)C(=O)N[C@@H](C)C(=O)N[C@H](C(=O)N[C@@H](CCC(N)=O)C(=O)N[C@H](C(=O)N[C@@H](C)C(=O)N[C@@H](CCCCN)C(N)=O)[C@@H](C)CC)[C@@H](C)O)C(C)C)C(C)C)C(C)C)[C@@H](C)CC,,membrane binding,POPC bilayers,room temperature,Kd,1000 µM
C[C@H](NC(=O)[C@H](Cc1c[nH]cn1)NC(=O)[C@H](CO)NC(=O)[C@@H](N)CC(=O)O)C(=O)N[C@@H](CCCCN)C(=O)N[C@@H](CCCNC(=N)N)C(=O)N[C@@H](Cc1c[nH]cn1)C(=O)N[C@@H](Cc1c[nH]cn1)C(=O)NCC(=O)N[C@@H](Cc1ccc(O)cc1)C(=O)N[C@@H](CCCCN)C(=O)N[C@@H](CCCNC(=N)N)C(=O)N[C@@H](CCCCN)C(=O)N[C@@H](Cc1ccccc1)C(=O)N[C@@H](Cc1c[nH]cn1)C(=O)N[C@@H](CCC(=O)O)C(=O)N[C@@H](CCCCN)C(=O)N[C@@H](Cc1c[nH]cn1)C(=O)N[C@@H](Cc1c[nH]cn1)C(=O)N[C@@H](CO)C(=O)N[C@@H](Cc1c[nH]cn1)C(=O)N[C@@H](CCCNC(=N)N)C(=O)NCC(=O)N[C@@H](Cc1ccc(O)cc1)C(=O)O,Porphyromonas gingivalis,"binding, radioligand binding",381,,Kd,1.5 µM
O=C(C=CN1C2CCC1c1ncnc(NC3CC3)c1C2)c1ccccc1O (stereo not shown),SMARCA2,binding,,,Kd,0.037 µM
CC(=O)N[C@H]1[C@@H](OC[C@H](NC(=O)CNC(=O)[C@@H]2CCCN2C(=O)[C@H](C)NC(=O)[C@@H]2CCCN2C(=O)[C@@H](N)CCCNC(=N)N)C(=O)N[C@H](C(=O)N[C@@H](C)C(=O)N2CCC[C@H]2C(=O)N2CCC[C@H]2C(=O)N[C@@H](C)C(=O)N[C@@H](Cc2c[nH]cn2)C(=O)NCC(=O)O)[C@@H](C)O)O[C@H](CO)[C@H](O)[C@@H]1O,16 A monoclonal antibody,SPR,,,Kd,0.93 µM
CC[C@H](C)[C@@H]1NC(=O)[C@H](CCSC)NC(=O)CCCC(=O)NCCCC[C@@H](C(N)=O)NC(=O)[C@H]([C@@H](C)O)NC(=O)CNC(=O)[C@H](C)NC(=O)[C@H](C(C)C)NC(=O)[C@H](Cc2ccccc2)NC(=O)[C@H](CCC(=O)O)NC(=O)[C@H](Cc2ccc(O)cc2)NC(=O)[C@H](Cc2c[nH]c3ccccc23)NC(=O)[C@H]([C@@H](C)O)NC1=O,"Guanine nucleotide-binding protein G(i) subunit alpha-1, GDP-bound (GNAI1, Homo sapiens, UniProt P63096)",,,,Kd,0.0021 µM
CCCCCn1cc(C(=O)c2ccc3c(c2)CC(C)(C)C3)c2ccccc21,cannabinoid receptor CB1,binding,,,Ki,0.0388 ± 0.0198 µM
C[C@H](NC(=O)[C@H](CCC(N)=O)NC(=O)[C@H](C)NC(=O)[C@H](CCCCN)NC(=O)[C@H](CCC(N)=O)NC(=O)[C@H](C)NC(=O)[C@H](CCCCN)NC(=O)[C@H](CCC(N)=O)NC(=O)[C@H](C)NC(=O)[C@H](CCC(N)=O)NC(=O)[C@H](CCCCN)NC(=O)[C@H](C)NC(=O)[C@H](CCC(N)=O)NC(=O)[C@H](CCCCN)NC(=O)[C@H](C)NC(=O)[C@H](CCC(N)=O)NC(=O)[C@H](C)NC(=O)[C@H](CCCCN)NC(=O)[C@H](CCC(N)=O)NC(=O)[C@H](C)NC(=O)[C@H](CCCCN)NC(=O)[C@H](CO)NC(=O)[C@H](Cc1ccc(O)cc1)NC(=O)CNC(=O)CNC(=O)CN)C(=O)N[C@@H](CCCCN)C(=O)N[C@@H](CCC(N)=O)C(=O)N[C@@H](C)C(=O)N[C@@H](CCCCN)C(=O)N[C@@H](CCC(N)=O)C(=O)O,,binding,AA amyloid-laden tissue,high-affinity site,Kd,~0.5 µM
"CCOC(=O)C1C(OC(c2ccc(Cl)cc2)c2ccc(Cl)cc2)CC2CCC1N2C (single isomer, unassigned)",serotonin transporter,,,,Ki,1.56 ± 0.091 µM

# A few entries again:
Structure (SMILES),target or system,assay,system,conditions,quantity,result
COc1ccc(SC2=CC(=O)C(=O)c3c(-c4c(C)cccc4C)cn(S(=O)(=O)c4ccccc4)c32)cc1,"ELAV-like protein 1, RRM1-RRM2 domains (ELAVL1, Homo sapiens, UniProt Q15717)",,,,IC50,0.79 µM
